Experimental data from different studies.
Parts stem from different laboratories: compare values within a part only. Substitutions count along the parent as printed.

Sample 1
Target: CCNE2, cyclin fold, Cln2 fusion (human)
Technique: yeast growth competition, sequencing
Matrix: yeast
Setting: weak parent motif
Reference: not given
Reading: higher = stronger binding
Parent: CDKN1C docking peptide (human); TSACRSLFGPVDH; partner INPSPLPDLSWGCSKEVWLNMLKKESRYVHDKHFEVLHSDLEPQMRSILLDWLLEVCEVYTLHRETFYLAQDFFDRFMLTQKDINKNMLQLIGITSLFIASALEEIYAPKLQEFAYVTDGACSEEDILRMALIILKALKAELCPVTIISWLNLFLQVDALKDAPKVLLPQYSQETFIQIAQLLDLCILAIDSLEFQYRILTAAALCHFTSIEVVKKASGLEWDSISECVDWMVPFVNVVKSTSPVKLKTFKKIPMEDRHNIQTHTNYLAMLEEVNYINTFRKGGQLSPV
`TSACKSLLGPVDH [R5K F8L]` — result for “normalised enrichment score”: -0.165.
Under “normalised enrichment score”, `TSACRSLFGPADH [V11A]` is recorded as 1.09.
`TSACRSLAGPVDH [F8A]`: “normalised enrichment score” 0.137.
Under “normalised enrichment score”, `ASACRSLFGPVDH [T1A]` is recorded as 0.631.
For `TSAARSLFGPVDH [C4A]`, “normalised enrichment score” read 0.122.
`TSACASAFGPVDH [R5A L7A]`: “normalised enrichment score” -0.0928.
`TSACRSLLGPVDH [F8L]` — result for “normalised enrichment score”: 0.327.
For `TAACRSLFGPVDH [S2A]`, “normalised enrichment score” read 1.65.
`TSACRSAFGPVDH [L7A]`: “normalised enrichment score” -0.364.

Sample 2
Target: Centromere-binding protein 1, full length, His-tagged (CBF1, Saccharomyces cerevisiae, UniProt P17106, residues 1-351)
Sequence of UniProt P17106 (whole entry, looked up): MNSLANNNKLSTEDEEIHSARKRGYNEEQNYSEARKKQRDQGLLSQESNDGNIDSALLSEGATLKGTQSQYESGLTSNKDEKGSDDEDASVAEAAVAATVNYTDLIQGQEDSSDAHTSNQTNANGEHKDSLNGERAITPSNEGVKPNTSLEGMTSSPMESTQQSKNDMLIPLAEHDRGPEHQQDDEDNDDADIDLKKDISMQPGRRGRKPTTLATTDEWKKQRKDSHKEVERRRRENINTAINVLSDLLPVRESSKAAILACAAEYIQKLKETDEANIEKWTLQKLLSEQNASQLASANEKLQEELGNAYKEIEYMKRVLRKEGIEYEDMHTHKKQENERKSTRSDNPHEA
Technique: competition protein-binding microarray
Form: double-stranded DNA, one strand shown
Matrix: in vitro
Tested at: 2 µM
Setting: whole 60-bp probe, lowest competitor level
Added: Pho4 competitor, 0.05 µM
Reading: higher = stronger binding
For `TGCGCAACAACTTGTTACGTGGGTGTATGTCTAGAAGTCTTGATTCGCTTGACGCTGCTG`, the fluorescence intensity was 64.5 a.u.
For `CGGAAGGGAGATCCGCACGTGACGGTTGAAAAAGGGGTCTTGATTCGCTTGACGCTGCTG`, the fluorescence intensity was 5160 a.u.
`CTTTCCCGATCTTGGAAAGTGGGTGTAGCACATTTGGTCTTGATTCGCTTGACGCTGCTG` gave a fluorescence intensity of 75.7 a.u.
The fluorescence intensity of `ACCACCAAAACCGACCACCGGCGAGCGGATATGCGGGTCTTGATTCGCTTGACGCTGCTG` is reported as 69.9 a.u.
With `CTTTGCCGCCTGAAACACGTGTTGAACAAGCCGCCCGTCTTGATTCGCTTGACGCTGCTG` the fluorescence intensity was 1370 a.u.
`GGTGATAGCCATATCTTCGTGCTTTTGTTGCGATTGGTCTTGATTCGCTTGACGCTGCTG` has a fluorescence intensity of 77.8 a.u.
With `GTCTTGTCTCATTGTCGCGTGGGTGTCCCCACTTCAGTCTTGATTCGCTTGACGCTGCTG` the fluorescence intensity was 107 a.u.
With `CGATTCGCTGCTCAACACATGGAGGGCCCAAAGACAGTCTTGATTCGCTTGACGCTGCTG` the fluorescence intensity was 68.6 a.u.
`GGTTTTCTTTTTTGGAATGTGATATATATACATATTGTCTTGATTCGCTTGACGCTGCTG` has a fluorescence intensity of 130 a.u.
With `CTAACGAAGGTTTGGAATGTGGGTGACAAGCCAAGTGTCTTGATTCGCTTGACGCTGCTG` the fluorescence intensity was 74.7 a.u.
The fluorescence intensity of `TTGCGCTAACGAAACCACATGGATCCTCCACACAACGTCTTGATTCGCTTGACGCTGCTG` is reported as 100 a.u.
`ATTGGTGCAATTCCGCACGTTCCAACTTTCCGATGCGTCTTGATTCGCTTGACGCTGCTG` has a fluorescence intensity of 94.1 a.u.
`CTAACGAAGGTTTGAAGGGTGGGTGACAAGCCAAGTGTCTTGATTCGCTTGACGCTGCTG` gave a fluorescence intensity of 70.9 a.u.
With `CATGCCTTTTGTTCGTCCGTGACTCGGTCCTTCAATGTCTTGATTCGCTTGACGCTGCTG` the fluorescence intensity was 117 a.u.
For `CATACCCAACCTTGTTAAGTGGGTGAAGATATTTGTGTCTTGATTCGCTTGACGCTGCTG`, the fluorescence intensity was 78.8 a.u.
With `CATACCCAACCTTGGGGGGTGGGTGAAGATATTTGTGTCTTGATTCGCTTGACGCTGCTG` the fluorescence intensity was 89.3 a.u.
`ACCTTAACGCGAAAACGCGTGAAATTGAAATTTAGCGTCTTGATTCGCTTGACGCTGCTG` gave a fluorescence intensity of 113 a.u.
The fluorescence intensity of `GAGAAACTATTACAGCACGTGAAATCCTTGCCTATGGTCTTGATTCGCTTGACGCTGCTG` is reported as 1110 a.u.
`CGATACCGTAACCACCATGTGGGCAAGTACCGTATTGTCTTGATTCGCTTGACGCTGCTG` has a fluorescence intensity of 72.3 a.u.
`CATACCCAACCTTGTCACGATACTTAAGATATTTGTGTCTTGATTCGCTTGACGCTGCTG` gave a fluorescence intensity of 302 a.u.

Sample 3
Target: NFIL3, bZIP domain (human)
Technique: DHFR protein complementation
Matrix: yeast
Setting: single substitutions, most at no-binding floor
Reference: wild-type JUN-FOS pair
Reading: higher = stronger binding
Parent: JUN, bZIP domain (human); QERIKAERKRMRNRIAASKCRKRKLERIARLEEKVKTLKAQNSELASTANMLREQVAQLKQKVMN; partner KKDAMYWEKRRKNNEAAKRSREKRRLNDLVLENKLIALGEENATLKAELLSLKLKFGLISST
For `M51P`, the binding fitness was -1.49 natural log.
The binding fitness of `R53H` is reported as -1.47 natural log.
The binding fitness of `A46T` is reported as -1.37 natural log.
The binding fitness of `L45F` is reported as -1.51 natural log.
`A29V` gave a binding fitness of -1.35 natural log.
The binding fitness of `S43V` is reported as -1.36 natural log.
With `K39V` the binding fitness was -1.47 natural log.
The binding fitness of `E54Y` is reported as -1.44 natural log.
With `L45D` the binding fitness was -1.48 natural log.
`L31Q` has a binding fitness of -1.57 natural log.
With `K39N` the binding fitness was -1.45 natural log.
`L38A` has a binding fitness of -1.37 natural log.
With `V35M` the binding fitness was -1.13 natural log.
`L52A` gave a binding fitness of -1.5 natural log.
For `I28D`, the binding fitness was -1.51 natural log.
The binding fitness of `E32G` is reported as -1.42 natural log.
`T48G` gave a binding fitness of -1.49 natural log.
For `E33A`, the binding fitness was -1.55 natural log.
The binding fitness of `L45K` is reported as -1.44 natural log.

Sample 4
Target: Fragile X messenger ribonucleoprotein 1, C-terminal low-complexity region (Fmr1, Mus musculus, UniProt P35922)
Technique: RNA Bind-n-Seq
Form: RNA
Matrix: in vitro
Tested at: 200 nM
Setting: whole 134-nt RNA, ends assumed
Added: 150 mM LiCl
Reference: input library
Reading: higher = stronger binding
Library: 7-deaza-guanosine replaces G
`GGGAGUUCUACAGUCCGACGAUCAGUCCUGUGCUACACAUCGUAUGUACCGAAUCGGGGUUUUUGGGGAGGGGAAAGGGGAAAGUAUUAUGUUACGCCGUUCGGAUCUGCACUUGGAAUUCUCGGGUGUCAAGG` has a log2 enrichment of 0.0865.
`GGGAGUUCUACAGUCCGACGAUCCAAGUCCUGUGCUACACAUCGUAUGUACCGAAUCGGAGGUUUUUGGUUUUUUUGGAAAGUAUUAUGUUACGCCGUUCGGAUCUGCACUUCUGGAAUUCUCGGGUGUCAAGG` has a log2 enrichment of -1.37.
With `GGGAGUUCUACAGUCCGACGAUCACCAUGCAGGUGGGCAUCUUUGGGAAGUGGGGCAAGGGGGGGAUAGGGAGGGGGGUAACACUUUGGGAACAGGUUGUCCCAGGUCGUUUCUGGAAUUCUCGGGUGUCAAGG` the log2 enrichment was 1.56.
`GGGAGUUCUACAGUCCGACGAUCUAACUUUAGAGGAGGAUCUGAUGGAUAUGGCAGUGGACGUGGAUUUGGGGAUGGCUAUAAUGGGUAUGGAGGAGGACCUGGGGGUGGCAAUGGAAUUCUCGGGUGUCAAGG` gave a log2 enrichment of 0.25.
`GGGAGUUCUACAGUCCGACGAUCUCAAGUCCUGUGCUACACAUCGUAUGUACCGAAUCGGGGAAGGGAAGGAAGGGGAAAGUAUUAUGUUACGCCGUUCGGAUCUGCACUUCCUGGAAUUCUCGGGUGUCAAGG` gave a log2 enrichment of -0.591.
`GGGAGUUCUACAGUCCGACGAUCUCCUGUGCUACACAUCGUAUGUACCGAAUCGGGGUUUUUGGGGUUUUUGGGUUUUUGGGGAAAGUAUUAUGUUACGCCGUUCGGAUCUGCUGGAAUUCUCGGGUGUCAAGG` has a log2 enrichment of -0.944.
For `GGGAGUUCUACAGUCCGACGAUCUGGCCCUGGUGGCAUGCGGGGAGGAAUAGGUGGCCUCAUGGAUCGUGGUGGUCCCGGUGGAAUGUUCAGAGGUGGCCGUGGUGGAGACAGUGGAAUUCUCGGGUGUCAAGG`, the log2 enrichment was -0.268.
`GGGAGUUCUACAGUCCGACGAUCAGUCCUGUGCUACACAUCGUAUGUACCGAAUCGGGGUUUGGGGUUUGGGGAAAGGGGAAAGUAUUAUGUUACGCCGUUCGGAUCUGCACUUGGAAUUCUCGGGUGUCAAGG` has a log2 enrichment of -0.845.
With `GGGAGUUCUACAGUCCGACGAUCGAACUUUAGAGGAGGAUCUGAUGGAUAUGGCAGUGGACGUGGAUUUGGGGAUGGCUAUAAUGGGUAUGGAGGAGGACCUGGAGGUGGCAAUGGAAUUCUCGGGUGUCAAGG` the log2 enrichment was 0.734.
`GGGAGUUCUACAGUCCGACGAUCUUUUACAUUUAUACACAUGUAUUGGCUUCCUUUUACACUAUUAGGCGGUCAAGAAGCAGAUCGAGACGGCGGUCACAUUCUAAGUCUAGGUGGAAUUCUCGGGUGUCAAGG` has a log2 enrichment of 0.77.
`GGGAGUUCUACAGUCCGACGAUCGCAGGAAGUAAAAACAAAUGGAAAUGCUUCGGAUAUUGGCAGGGGUGGGGGUUGCUAAGGAAAGGGUGGGAUGGGAGUGGGUAAAGAGUUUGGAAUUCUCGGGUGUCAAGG` has a log2 enrichment of 1.65.

Sample 5
Target: Histone acetyltransferase KAT6A, both winged helices, GST fusion (KAT6A, Homo sapiens, UniProt Q92794, residues 1-181)
Technique: protein binding microarray
Form: double-stranded DNA, one strand shown
Matrix: in vitro
Tested at: not given
Setting: 8-mer, flanks averaged, mean of 2 arrays, mostly near background
Reference: not given
Reading: higher = stronger binding
Construct (chain): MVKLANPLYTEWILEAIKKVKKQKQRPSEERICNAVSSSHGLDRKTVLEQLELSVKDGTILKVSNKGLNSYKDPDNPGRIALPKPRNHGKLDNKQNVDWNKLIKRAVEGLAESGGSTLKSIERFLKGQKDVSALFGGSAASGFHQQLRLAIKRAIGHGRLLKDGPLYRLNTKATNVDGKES
With `CCTTTGTC` the E-score was -0.0984.
For `AAGGAACG`, the E-score was 0.159.
`CATCTGCG` gave an E-score of 0.0544.
`GACGGACC` gave an E-score of 0.192.
`CACAGAGA` gave an E-score of -0.182.
`AATACTCA` has an E-score of -0.0902.
`ACTCGCCA` gave an E-score of -0.0875.
`AGCAAGAG` gave an E-score of -0.3.
For `AGACGGAT`, the E-score was 0.155.
The E-score of `ACGAGTAT` is reported as -0.0659.
With `CTGTTCAA` the E-score was -0.099.
For `CCTGATGA`, the E-score was -0.0686.
With `ATGGACTC` the E-score was -0.00356.
With `CCTGTTGA` the E-score was -0.144.
`GACGCATA` gave an E-score of 0.208.
With `TGATTCAA` the E-score was 0.0586.
For `ATGGGTGC`, the E-score was -0.055.
The E-score of `AGCCTTGA` is reported as -0.148.
The E-score of `AGCTCCGA` is reported as 0.0198.
For `GAATATAA`, the E-score was -0.0653.
The E-score of `CCCGGAAA` is reported as 0.154.
With `GACATGGA` the E-score was -0.0349.
The E-score of `TATGGACA` is reported as -0.134.
The E-score of `AGTCCTAG` is reported as -0.258.
